Measurements from different studies.
Several values in a cell are separate wells, animals, samples, runs or records. ± gives the spread as reported.
CREBBP bromodomain: CREB-binding protein, bromodomain (CREBBP, Homo sapiens, UniProt Q92793)
Chain of UniProt Q92793 (whole entry, looked up): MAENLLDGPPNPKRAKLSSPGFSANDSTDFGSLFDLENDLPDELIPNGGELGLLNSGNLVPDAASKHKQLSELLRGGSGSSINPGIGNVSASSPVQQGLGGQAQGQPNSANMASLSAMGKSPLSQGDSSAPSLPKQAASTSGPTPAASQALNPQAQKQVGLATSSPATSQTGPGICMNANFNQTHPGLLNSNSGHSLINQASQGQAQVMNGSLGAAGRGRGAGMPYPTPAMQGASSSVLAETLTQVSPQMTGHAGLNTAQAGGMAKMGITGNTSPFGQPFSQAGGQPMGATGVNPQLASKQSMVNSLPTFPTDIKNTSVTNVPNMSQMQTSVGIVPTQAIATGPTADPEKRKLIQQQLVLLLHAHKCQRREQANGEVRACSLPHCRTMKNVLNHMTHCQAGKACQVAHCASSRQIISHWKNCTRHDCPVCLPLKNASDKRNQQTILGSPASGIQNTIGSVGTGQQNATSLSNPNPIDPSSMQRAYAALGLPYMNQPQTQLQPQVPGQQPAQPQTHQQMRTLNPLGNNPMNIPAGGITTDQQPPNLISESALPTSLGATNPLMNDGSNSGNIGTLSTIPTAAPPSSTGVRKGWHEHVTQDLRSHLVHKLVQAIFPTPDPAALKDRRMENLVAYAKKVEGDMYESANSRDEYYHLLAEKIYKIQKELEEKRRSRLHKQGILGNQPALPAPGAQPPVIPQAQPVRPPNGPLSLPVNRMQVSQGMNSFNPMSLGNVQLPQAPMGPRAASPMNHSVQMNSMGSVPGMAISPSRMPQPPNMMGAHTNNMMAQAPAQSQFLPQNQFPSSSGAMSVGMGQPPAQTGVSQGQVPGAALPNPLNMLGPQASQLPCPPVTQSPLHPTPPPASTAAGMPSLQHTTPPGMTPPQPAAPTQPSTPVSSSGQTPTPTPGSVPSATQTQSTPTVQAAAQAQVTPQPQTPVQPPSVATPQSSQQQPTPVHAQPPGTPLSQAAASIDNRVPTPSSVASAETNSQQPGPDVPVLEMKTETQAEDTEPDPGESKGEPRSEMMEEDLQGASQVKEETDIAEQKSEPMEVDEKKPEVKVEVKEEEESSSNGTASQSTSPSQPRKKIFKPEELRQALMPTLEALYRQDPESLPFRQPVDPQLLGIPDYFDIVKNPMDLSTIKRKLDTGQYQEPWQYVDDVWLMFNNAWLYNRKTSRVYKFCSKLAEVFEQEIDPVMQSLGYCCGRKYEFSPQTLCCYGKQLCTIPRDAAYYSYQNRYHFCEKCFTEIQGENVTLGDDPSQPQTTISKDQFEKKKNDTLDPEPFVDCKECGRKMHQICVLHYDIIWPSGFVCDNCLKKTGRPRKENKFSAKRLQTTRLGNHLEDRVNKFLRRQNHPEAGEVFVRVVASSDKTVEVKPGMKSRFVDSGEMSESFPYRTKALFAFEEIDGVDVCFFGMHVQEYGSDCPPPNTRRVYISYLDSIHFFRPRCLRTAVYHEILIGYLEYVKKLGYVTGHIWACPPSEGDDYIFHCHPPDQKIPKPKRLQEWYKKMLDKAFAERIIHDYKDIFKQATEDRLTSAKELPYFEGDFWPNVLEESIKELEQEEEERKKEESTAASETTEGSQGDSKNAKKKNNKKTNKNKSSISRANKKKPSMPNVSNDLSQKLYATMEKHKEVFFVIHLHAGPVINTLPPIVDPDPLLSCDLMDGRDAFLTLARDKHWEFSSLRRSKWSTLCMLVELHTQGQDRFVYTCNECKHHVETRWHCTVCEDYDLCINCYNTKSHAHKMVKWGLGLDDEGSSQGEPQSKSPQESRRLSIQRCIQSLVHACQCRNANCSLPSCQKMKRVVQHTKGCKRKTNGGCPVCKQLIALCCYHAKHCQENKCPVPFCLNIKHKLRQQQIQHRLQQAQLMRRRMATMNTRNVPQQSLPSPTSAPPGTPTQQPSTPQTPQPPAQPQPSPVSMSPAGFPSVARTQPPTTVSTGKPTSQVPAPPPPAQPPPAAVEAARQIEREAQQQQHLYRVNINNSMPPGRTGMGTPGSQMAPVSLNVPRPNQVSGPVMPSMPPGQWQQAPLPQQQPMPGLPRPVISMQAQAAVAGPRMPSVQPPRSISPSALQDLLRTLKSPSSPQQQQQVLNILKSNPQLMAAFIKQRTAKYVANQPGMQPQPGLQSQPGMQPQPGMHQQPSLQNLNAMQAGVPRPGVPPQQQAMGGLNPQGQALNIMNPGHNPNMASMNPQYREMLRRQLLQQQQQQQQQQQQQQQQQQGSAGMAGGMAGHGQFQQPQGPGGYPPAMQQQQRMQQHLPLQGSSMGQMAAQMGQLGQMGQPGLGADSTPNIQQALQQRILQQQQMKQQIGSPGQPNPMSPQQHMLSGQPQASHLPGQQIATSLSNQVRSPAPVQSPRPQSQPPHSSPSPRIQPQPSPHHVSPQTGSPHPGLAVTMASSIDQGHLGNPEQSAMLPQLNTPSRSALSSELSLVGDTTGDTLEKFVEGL
PADI4: Protein-arginine deiminase type-4 (PADI4, Homo sapiens, UniProt Q9UM07)
Chain of UniProt Q9UM07 (whole entry, looked up): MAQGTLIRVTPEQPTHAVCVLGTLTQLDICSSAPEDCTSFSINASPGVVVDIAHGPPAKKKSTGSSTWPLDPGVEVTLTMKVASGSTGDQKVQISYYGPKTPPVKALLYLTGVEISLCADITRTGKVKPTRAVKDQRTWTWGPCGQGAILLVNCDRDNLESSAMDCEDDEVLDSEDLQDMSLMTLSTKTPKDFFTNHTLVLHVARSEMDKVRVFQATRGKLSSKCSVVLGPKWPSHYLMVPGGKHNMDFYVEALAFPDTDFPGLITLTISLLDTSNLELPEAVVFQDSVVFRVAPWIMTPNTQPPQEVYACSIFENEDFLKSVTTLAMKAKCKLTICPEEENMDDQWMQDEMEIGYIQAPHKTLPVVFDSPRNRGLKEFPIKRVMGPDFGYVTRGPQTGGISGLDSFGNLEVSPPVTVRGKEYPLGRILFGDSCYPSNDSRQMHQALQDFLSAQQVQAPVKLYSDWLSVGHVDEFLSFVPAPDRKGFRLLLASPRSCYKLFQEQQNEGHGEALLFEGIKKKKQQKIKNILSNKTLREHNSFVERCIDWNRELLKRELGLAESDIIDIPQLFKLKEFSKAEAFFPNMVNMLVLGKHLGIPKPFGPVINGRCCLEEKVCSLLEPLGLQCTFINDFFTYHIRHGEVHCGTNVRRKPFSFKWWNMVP
MAOB: Amine oxidase [flavin-containing] B (MAOB, Homo sapiens, UniProt P27338)
CSNK1A1: Casein kinase I isoform alpha (CSNK1A1, Homo sapiens, UniProt P48729)
Chain of UniProt Q16774 (whole entry, looked up): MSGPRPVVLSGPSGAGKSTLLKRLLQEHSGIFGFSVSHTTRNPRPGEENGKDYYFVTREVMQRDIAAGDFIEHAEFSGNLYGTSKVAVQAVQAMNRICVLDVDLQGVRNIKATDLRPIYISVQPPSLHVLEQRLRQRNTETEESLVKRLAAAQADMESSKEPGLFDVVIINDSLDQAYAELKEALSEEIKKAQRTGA
Chain of UniProt P48729 (whole entry, looked up): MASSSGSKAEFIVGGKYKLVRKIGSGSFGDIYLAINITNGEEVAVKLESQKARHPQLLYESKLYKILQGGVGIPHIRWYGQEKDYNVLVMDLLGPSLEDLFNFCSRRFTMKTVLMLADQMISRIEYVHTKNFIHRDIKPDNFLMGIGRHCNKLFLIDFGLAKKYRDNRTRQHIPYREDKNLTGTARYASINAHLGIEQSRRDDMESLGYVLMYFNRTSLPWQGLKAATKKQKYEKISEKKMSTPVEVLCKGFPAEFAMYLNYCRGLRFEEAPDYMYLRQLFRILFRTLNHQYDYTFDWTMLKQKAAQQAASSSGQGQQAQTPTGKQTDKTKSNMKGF
Chain of UniProt Q63384 (whole entry, looked up): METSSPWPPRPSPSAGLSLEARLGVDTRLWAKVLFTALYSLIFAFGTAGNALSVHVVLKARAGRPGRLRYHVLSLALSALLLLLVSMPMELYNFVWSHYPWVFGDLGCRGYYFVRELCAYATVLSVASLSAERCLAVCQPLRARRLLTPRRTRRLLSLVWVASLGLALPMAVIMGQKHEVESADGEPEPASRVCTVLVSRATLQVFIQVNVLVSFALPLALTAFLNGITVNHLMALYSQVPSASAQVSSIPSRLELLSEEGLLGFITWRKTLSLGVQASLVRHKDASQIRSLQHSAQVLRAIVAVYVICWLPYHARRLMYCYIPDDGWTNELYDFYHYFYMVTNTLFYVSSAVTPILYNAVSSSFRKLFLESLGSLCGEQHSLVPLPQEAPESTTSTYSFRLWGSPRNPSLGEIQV
Chain of UniProt P55786 (whole entry, looked up): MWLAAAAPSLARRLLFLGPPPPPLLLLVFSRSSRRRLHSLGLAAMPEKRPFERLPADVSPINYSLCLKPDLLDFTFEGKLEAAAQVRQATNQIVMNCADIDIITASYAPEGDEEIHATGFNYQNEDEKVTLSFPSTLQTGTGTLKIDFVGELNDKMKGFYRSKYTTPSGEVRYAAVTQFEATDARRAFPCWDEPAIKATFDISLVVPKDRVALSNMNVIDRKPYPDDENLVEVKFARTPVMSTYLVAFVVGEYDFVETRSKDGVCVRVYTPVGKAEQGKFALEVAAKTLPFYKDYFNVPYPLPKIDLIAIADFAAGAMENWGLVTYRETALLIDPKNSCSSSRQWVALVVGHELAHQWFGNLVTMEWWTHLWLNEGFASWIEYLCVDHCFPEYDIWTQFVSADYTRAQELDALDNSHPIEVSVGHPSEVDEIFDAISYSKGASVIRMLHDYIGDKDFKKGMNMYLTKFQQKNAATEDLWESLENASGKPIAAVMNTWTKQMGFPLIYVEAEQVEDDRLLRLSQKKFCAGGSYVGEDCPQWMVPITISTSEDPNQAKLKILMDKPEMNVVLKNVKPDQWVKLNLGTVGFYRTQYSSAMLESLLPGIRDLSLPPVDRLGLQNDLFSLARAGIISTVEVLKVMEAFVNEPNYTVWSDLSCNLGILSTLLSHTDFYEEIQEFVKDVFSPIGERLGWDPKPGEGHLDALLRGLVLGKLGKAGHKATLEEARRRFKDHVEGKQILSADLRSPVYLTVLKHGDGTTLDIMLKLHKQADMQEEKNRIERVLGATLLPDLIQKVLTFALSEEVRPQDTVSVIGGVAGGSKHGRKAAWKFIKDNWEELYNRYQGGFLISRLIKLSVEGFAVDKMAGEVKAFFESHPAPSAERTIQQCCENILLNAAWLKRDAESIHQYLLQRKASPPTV

Compound | target or system | assay | test system | conditions | scale | endpoint | result
Cc1cc2c(NC(=O)c3cccc(C(=O)O)c3)cccc2nn1 | CREBBP bromodomain | binding, BROMOscan competition binding | – | – | relative to: Kd BRD4 bromodomain 1 over Kd CBP bromodomain | selectivity ratio | 37
N=C(CCl)NCCC[C@H](NC(=O)c1cnc2cc(O)ccc2c1)C(=O)NCc1ccccc1 | PADI4 | – | – | – | relative to: PAD4 IC50 over PAD1 IC50 | selectivity ratio | 1.2
Nc1ncnc2c1ncn2[C@@H]1O[C@H](COP(=O)(O)CP(=O)(O)OP(=O)(O)O)[C@@H](O)[C@H]1O | P2X purinoceptor 1 (P2RX1, Homo sapiens, UniProt P51575, K136W) | calcium influx | – | 3.16 nM | relative to: ionomycin response | calcium influx | 0%
NCCCNCCCCNCCCN | MFS-type transporter SLC18B1 (SLC18B1, Homo sapiens, UniProt Q6NT16, W384A) | binder | – | – | – | Kd | 181 µM
Nc1nc2c(ncn2[C@@H]2O[C@H](COP(=O)(O)O)[C@@H](O)[C@H]2O)c(=O)[nH]1 | GUK1 (Homo sapiens, UniProt Q16774) | enzyme activity, NADH-coupled | – | 500 µM, added: NaCl 150 mM | – | reaction velocity | 0.0862 µM/s and 0.0882 µM/s and 0.0702 µM/s
O=C(Nc1cccc(Cl)c1)c1ccc2c(c1)C(=O)NC2=O | MAOB | – | – | – | relative to: IC50 MAO-A over IC50 MAO-B | selectivity ratio | > 138
CN1CCC(c2cc(-c3ccncc3)c(-c3ccc(F)cc3)[nH]2)CC1 | Plasmodium falciparum | LDH colourimetric | 3D7 Hyp1-Nluc | 20 µM, 72 h | relative to: DMSO | parasite growth | 14.8%
N=C(CCl)NCCC[C@H](NC(=O)c1ccc2ccc(O)cc2c1)C(=O)NCc1ccccc1 | PADI4 | – | – | – | relative to: PAD4 IC50 over PAD1 IC50 | selectivity ratio | 0.648 to 0.879
Cn1cc(C(=O)Nc2cccc(C(=O)O)c2)ccc1=O | CREBBP bromodomain | binding, BROMOscan competition binding | – | – | relative to: Kd BRD4 bromodomain 1 over Kd CBP bromodomain | selectivity ratio | 8
CCCCCOc1ccc2ccc(C(=O)N[C@@H](CCCNC(=N)CCl)C(=O)NCc3ccccc3)cc2c1 | PADI4 | – | – | – | relative to: PAD4 IC50 over PAD1 IC50 | selectivity ratio | 0.434
Cn1cc(-c2ccc(-c3cncc(Cl)c3N3CCC4(CCNC4=O)CC3)cc2)cn1 | COLO 205 | gene expression, microarray, item: PLK4 mRNA | – | concentration not given, 6 h | relative to: untreated cells | log2 fold change | -2.63
COc1cccc(OC)c1-c1cc(NC(=O)C2(C(=O)O)CCCCC2)nn1-c1cccc2ccccc12 | Neurotensin receptor type 2 (Rattus norvegicus, UniProt Q63384) | binding | – | – | relative to: Ki NTS1 over Ki NTS2 | selectivity ratio | 79 fold
COc1ccc(C[C@H](N)C(=O)N[C@H]2[C@@H](O)[C@H](n3cnc4c(N(C)C)ncnc43)O[C@@H]2CO)cc1 | Puromycin-sensitive aminopeptidase (Homo sapiens, UniProt P55786) | enzyme activity, fluorescence | – | added: Ala-4-MNA substrate | relative to: APN IC50 over PSA IC50 | selectivity ratio | 4.3 fold
c1ccc(-c2n[nH]cc2-c2ccncn2)nc1 | CSNK1A1 | enzyme activity, ADP-Glo | – | – | relative to: IC50 over Yck2 IC50 | selectivity ratio | > 20
O=C(Nc1ccc(F)c(F)c1)c1ccc2c(c1)C(=O)NC2=O | MAOB | – | – | – | relative to: IC50 MAO-A over IC50 MAO-B | selectivity ratio | > 1670
CC(C)C[C@H](NC(=O)C[C@H](O)[C@H](CC(C)C)NC(=O)[C@H](Cc1c[nH]cn1)NC(=O)CNC(=O)[C@@H](NC(=O)[C@H](C)NC(=O)[C@H](Cc1c[nH]c2ccccc12)NC(=O)[C@H](CCC(N)=O)NC(=O)[C@@H](Cc1ccccc1)NC(=O)COCCOCCNC(=O)CCC(C(=O)O)N1CCN(CC(=O)O)CCN(CC(=O)O)CCN(CC(=O)O)CC1)C(C)C)C(N)=O (stereo partly drawn) [lutetium-177 labelled] | – | – | female BALB/c nu/nu mice, kidneys | intravenous, 100 pmol, 24 h, added: PA 300 µg | – | tissue uptake | 1.3 ± 0.3 %ID/g
O=C(Nc1cccc(Br)c1)c1ccc2c(c1)C(=O)NC2=O | MAOB | – | – | – | relative to: IC50 MAO-A over IC50 MAO-B | selectivity ratio | > 222
Oc1ccccc1-c1n[nH]cc1-c1ccnc2ccccc12 | CSNK1A1 | enzyme activity, ADP-Glo | – | – | relative to: IC50 over Yck2 IC50 | selectivity ratio | 10

For quick reference, copied from above:
Compound | target or system | assay | test system | conditions | scale | endpoint | result
NCCCNCCCCNCCCN | MFS-type transporter SLC18B1 (SLC18B1, Homo sapiens, UniProt Q6NT16, W384A) | binder | – | – | – | Kd | 181 µM
Oc1ccccc1-c1n[nH]cc1-c1ccnc2ccccc12 | CSNK1A1 | enzyme activity, ADP-Glo | – | – | relative to: IC50 over Yck2 IC50 | selectivity ratio | 10
CC(C)C[C@H](NC(=O)C[C@H](O)[C@H](CC(C)C)NC(=O)[C@H](Cc1c[nH]cn1)NC(=O)CNC(=O)[C@@H](NC(=O)[C@H](C)NC(=O)[C@H](Cc1c[nH]c2ccccc12)NC(=O)[C@H](CCC(N)=O)NC(=O)[C@@H](Cc1ccccc1)NC(=O)COCCOCCNC(=O)CCC(C(=O)O)N1CCN(CC(=O)O)CCN(CC(=O)O)CCN(CC(=O)O)CC1)C(C)C)C(N)=O (stereo partly drawn) [lutetium-177 labelled] | – | – | female BALB/c nu/nu mice, kidneys | intravenous, 100 pmol, 24 h, added: PA 300 µg | – | tissue uptake | 1.3 ± 0.3 %ID/g
